Measurements pooled from the literature.
Protocols differ between the studies behind these lines. Several values in a cell are separate wells, animals, samples, runs or records. Numbers after ± are the reported error.

SMILES	tested on	assay	system	conditions	how to read	measurement	result
CCC(=CCc1c(O)cc2c(c1O)C(=O)C[C@@H](c1ccccc1O)O2)CC	HeLa	cytotoxicity, MTT	–	48 h, added: S9 fraction	–	log IC50	1.71 log µM
C1CCc2c(c(N3CCOCC3)nc3sc4c(N5CCNCC5)nnnc4c23)C1	cryopreserved human hepatocytes	UHPLC-MS peak area	–	1 µM, 120 min	–	percentage of drug-related material	48.4%
CC[C@H](C)C(=O)N1CCC(NC(=O)Nc2ccc(OC(F)(F)F)c(F)c2)CC1	Caco-2	Caco-2 permeability	–	10 µM, 60 min, pH 7.4 apical, 7.4 basolateral, replicate 2	apical to basolateral	percent recovery	46%
CC[C@H]1OC(=O)[C@H](C)[C@@H](O[C@H]2C[C@@](C)(OC)[C@@H](O)[C@H](C)O2)[C@H](C)[C@@H](O[C@@H]2O[C@H](C)C[C@H](N(C)C)[C@H]2O)[C@](C)(O)C[C@@H](C)/C(=N\OCOCCOC)[C@H](C)[C@@H](O)[C@]1(C)O	human hepatocytes	refers to: CYP3A4	–	concentration not given, 3 days	relative to: negative control	mRNA level	< 4 fold
NCCC(=O)N[C@@H](Cc1cnc[nH]1)C(=O)O	–	binding, MIDAS equilibrium dialysis LC-MS	A2AR-BRIL thermostabilized	concentration not given	relative to: no-protein control	log2 fold change	-0.191
CCCC(=O)OCSc1ccccc1C(=O)NCCn1cc(C(=O)NCc2cccc(C)n2)c(=O)c2cc3c(cc21)OC(F)(F)O3	human PBMCs, PHA-P-stimulated	XTT	–	7 days, CMU08 line	–	TC50	> 100 µM
C#Cc1c(F)ccc2cc(O)cc(-c3ncc4c(N5CC6CCC(C5)N6)nc(OC[C@@]56CCCN5C[C@H](F)C6)nc4c3F)c12	Caco-2	–	–	no inhibitor, P-gp (verapamil) set	–	efflux ratio	> 22.8
Cc1cc(C(=O)NC(C)(C)COc2cccc3c2C(N)=NS(=O)(=O)N3)cc(C)n1	human peripheral blood lymphocytes	CBPI, preliminary test	–	200 µg/mL, 4 h	relative to: vehicle control	cytotoxicity	2%
CCCC(=O)OCSc1ccccc1C(=O)NCCn1ccc(=O)c2cc(F)ccc21	CEM-SS	cell viability, XTT	RPMI with 10% FBS	6 days	–	TC50	56.2 ± 1.9 µM
C[C@@H](c1ccc2nccn2c1)n1nnc2ncc(-c3cnn(C)c3)nc21	human hepatocytes	refers to: CYP1A2 mRNA	human	48 h	–	F2	> 30 µM
COc1cc2ncnc(Nc3ccc(Oc4ccccc4)cc3C)c2cc1OC.O=C(O)C(F)(F)F	MeWo (NF1)	resazurin	–	0.1 µM, 72 h, added: trametinib 0 nM	–	viability fraction	1
COc1ccc(-c2nc(N3CCOCC3)c3sc(CN(C)c4ncc(C(=O)NO)cn4)cc3n2)cn1	primary human keratinocytes uninfected	live/dead staining	–	20 h	–	CC50	1.97 µM
COC[C@@H](CC(C)C)NC(=O)c1ccc(C)c(C)c1	primary human lymphocytes	–	–	280 µg/mL, 4 (unit not given), with S9	–	cells with structural aberrations	0%
CC[C@H](C)CCCCC(=O)N[C@@H](CCN)C(=O)N[C@H](C(=O)N[C@@H](CCN)C(=O)N[C@H]1CCNC(=O)[C@H]([C@@H](C)O)NC(=O)[C@H](CCN)NC(=O)[C@H](CCN)NC(=O)[C@H](CC(C)C)NC(=O)[C@@H](CC(C)C)NC(=O)[C@H](CCN)NC1=O)[C@@H](C)O	sheep erythrocytes	–	–	512 µg/mL, 37 °C	relative to: Triton X-100	hemolysis	< 5%
CCCC(=O)OCSc1ccccc1C(=O)NCCn1cc(C(=O)NCc2ncccn2)c(=O)c2cc3c(cc21)OCO3	CEM-SS	cell viability, XTT	RPMI with 10% FBS	6 days	–	TC50	> 100 µM
Nc1nc(NS(=O)(=O)c2ccccc2)nc(-c2ccc(Cl)cc2)c1-c1nc2ccccc2s1	Vero	cytotoxicity	–	72 h	–	maximum non-toxic concentration	100 µg/mL
CC(C)n1ncc2c(C(=O)NCC3(C)CNC3)cc(C3CC3)nc21	HeLa	neutral red uptake	–	1 µM, 2% FBS	relative to: positive control	viability	102%
CC(=O)ON=C1C=CC(=C(C#N)c2ccccc2)C=C1	HDF-1 human skin fibroblasts	MTT	–	24 h, serum-free DMEM	–	concentration of sudden viability drop	≥ 30 µg/mL
O=C(O)/C=C/c1ccccc1	HaCaT	cytotoxicity, MTT	–	48 h, 10% FBS	–	IC50	> 200 µM
O=C(Nc1ccc([N+](=O)[O-])cc1Cl)c1cc(Cl)ccc1O	primary human keratinocytes uninfected	live/dead staining	–	20 h	–	CC50	24.5 µM
CCC[C@H](CC)Oc1ccc(C(=O)OC)cc1NC(=O)c1nnn(-c2cc(OC)ccc2OC)c1C	SNU-C4 HiBiT-PXR knock-in	CellTiter-Glo	–	72 h, 10% FBS	–	CC50	> 30 µM

SMILES	tested on	assay	system	conditions	how to read	measurement	result
Cc1cccc(CNC(=O)c2cn(CCNC(=O)c3ccccc3Sc3c([N+](=O)[O-])ncn3C)c3cc4c(cc3c2=O)OC(F)(F)O4)n1	CEM-SS	cell viability, XTT	–	6 days, RPMI with 10% FBS, added: glutathione 2 mM	–	TC50	> 100 µM
CC(=O)Nc1cccc(-n2c(=O)n(C3CC3)c(=O)c3c(Nc4ccc(I)cc4F)n(C)c(=O)c(C)c32)c1	LoVo (KRAS G13D)	resazurin	–	50.00 nM, 72 h	relative to: DMSO	viability fraction	0.387
Cc1nc(N(C)C(=O)Cc2ccc(-c3ccccn3)cc2)sc1S(N)(=O)=O	primary human keratinocytes uninfected	live/dead staining	–	20 h	–	CC50	55.5 µM
O=P1(C2CCCCC2)CCCCC1	HaCaT	trypan blue	–	IC50, 72 h	–	viability	92.3%
CCCC(=O)OCSc1ccccc1C(=O)NCCOc1ccnc2ccc(OC(F)(F)F)cc12	CEM-SS	cell viability, XTT	RPMI with 10% FBS	6 days	–	TC50	43.7 ± 12.7 µM
CSc1nc(NS(=O)(=O)c2ccccc2)nc(N)c1-c1nc2ccccc2s1	Vero	cytotoxicity	–	72 h	–	maximum non-toxic concentration	90 µg/mL
CN(C(=O)C(C)(C)c1cc(C(F)(F)F)cc(C(F)(F)F)c1)c1cnc(N2C[C@H]3COCCN3C[C@H]2CO)cc1-c1ccc(F)cc1[14CH3]	cryopreserved human hepatocytes	–	–	5 µM, 0 h	–	turnover	< 1%
COc1cccc(-c2n[nH]c(SCc3ccccn3)n2)c1OC	CHO-WBL	–	–	63 µg/mL, 19 h, without S9	–	binucleated cells with micronuclei	1.9%
CCCC(=O)OCSc1ccccc1C(=O)NCCOc1ccnc2ccc(F)cc12	CEM-SS	cell viability, XTT	RPMI with 10% FBS	6 days	–	TC50	15.5 µM
C[C@H](O)c1ccc(NS(=O)(=O)c2ccc(OCC3CCC3)c(Cl)c2)c2nn(C)cc12	cryopreserved human hepatocytes	pan-CYP inhibition	–	1 µM, added: 1 mM 1-aminobenzotriazole and 15 µM tienilic acid	–	metabolism inhibited by ABT and TA	79%
O=C(Nc1ccc2c(c1)OC(F)(F)O2)Nc1ccc(Cl)c(C(F)(F)F)c1	HeLa	–	–	24 h	–	CC50	7.04 µM
C=CC(=O)N(C)CCOc1c(N)ncnc1-c1cc(F)cc(NC(=O)c2ccc(C3CC3)cc2F)c1C	human hepatocytes	refers to: CYP2B6 mRNA	–	–	relative to: vehicle	maximum fold induction	5.45
CC(C)(COP(=O)(O)OP(=O)(O)OC[C@H]1O[C@@H](n2cnc3c(N)ncnc32)[C@H](O)[C@@H]1O)[C@@H](O)C(=O)NCCC(=O)NCCS	–	binding, MIDAS equilibrium dialysis LC-MS	A2AR-BRIL thermostabilized	concentration not given	relative to: no-protein control	log2 fold change	-0.916
CCCC(=O)OCSc1ccccc1C(=O)NCCn1cc(C(=O)NCc2ccccn2)c(=O)c2cc3c(cc21)OCO3	CEM-SS	cell viability, XTT	RPMI with 10% FBS	6 days	–	TC50	> 100 µM
COc1cc(/C=C/C=C2\SC(=S)NC2=O)cc(OC)c1O	HeLa	CellTiter-Glo	–	2.5 µM, 24 h, unit not given	relative to: untreated	viability	0.975 and 1.03
CCCC(=O)OCSc1ccccc1C(=O)NCCn1ccc(=O)c2cc(OC(F)(F)F)ccc21	CEM-SS	cell viability, XTT	RPMI with 10% FBS	6 days	–	TC50	41.6 ± 6.5 µM
CC1(C)C2CCC1(CS(=O)(=O)[O-])C(=O)C2.[Na+] (racemic)	HCE	MTT	–	up to 50 µM	–	cytotoxicity	not toxic
COc1cccc2c1C(=O)c1c(O)c3c(c(O)c1C2=O)C[C@@](O)(C(=O)CO)C[C@@H]3O[C@H]1C[C@H](N)[C@H](O)[C@H](C)O1	THLE-2 transduced with Ad-CYP1A2	metabolism-induced cytotoxicity	–	48 h, 3D Matrigel spots	–	IC50	3.9 ± 1 µM
O=c1c(O[C@@H]2O[C@H](CO)[C@@H](O)[C@H](O)[C@H]2O)c(-c2ccc(O)cc2)oc2cc(O)cc(O)c12	HaCaT	cytotoxicity, MTT	–	48 h, 10% FBS	–	IC50	> 200 µM
O=C(C[C@@H](C(F)F)n1ccc(F)n1)N1CCC(O)(Cn2cnc3c(cnn3-c3ccc(F)cc3)c2=O)CC1	CHP-212 USP7 V517F knock-in	SRB	–	9.145 nM, 5 days	–	viability	103%

A few entries again:
SMILES	tested on	assay	system	conditions	how to read	measurement	result
CCC(=CCc1c(O)cc2c(c1O)C(=O)C[C@@H](c1ccccc1O)O2)CC	HeLa	cytotoxicity, MTT	–	48 h, added: S9 fraction	–	log IC50	1.71 log µM
C#Cc1c(F)ccc2cc(O)cc(-c3ncc4c(N5CC6CCC(C5)N6)nc(OC[C@@]56CCCN5C[C@H](F)C6)nc4c3F)c12	Caco-2	–	–	no inhibitor, P-gp (verapamil) set	–	efflux ratio	> 22.8
O=C(Nc1ccc([N+](=O)[O-])cc1Cl)c1cc(Cl)ccc1O	primary human keratinocytes uninfected	live/dead staining	–	20 h	–	CC50	24.5 µM
O=C(Nc1ccc2c(c1)OC(F)(F)O2)Nc1ccc(Cl)c(C(F)(F)F)c1	HeLa	–	–	24 h	–	CC50	7.04 µM
Cc1cc(C(=O)NC(C)(C)COc2cccc3c2C(N)=NS(=O)(=O)N3)cc(C)n1	human peripheral blood lymphocytes	CBPI, preliminary test	–	200 µg/mL, 4 h	relative to: vehicle control	cytotoxicity	2%
